Results collected from several papers.
Numbers after ± are the reported error.
Organism: Salmonella typhimurium

Structure (SMILES) | assay | system | conditions | scale | endpoint | value
COc1cccc(-c2n[nH]c(SCc3ccccn3)n2)c1OC | Ames test, preincubation | TA1537 | 0.50 mg/plate, with rat liver S9 |  | revertant colonies per plate | 10
O=[N+]([O-])c1ccc(N2CCN(CCC(O)c3ccc(F)cc3)CC2)c(C(F)(F)F)c1 (stereo not drawn) | genotoxicity, SOS/umu test | TA1535/pSK1002 | 0.25 mg/mL, 4 h, without S9, lower range |  | induction factor | 0.1
O=NN1CCN(C2CCCC2)CC1 | mutagenicity, Ames plate incorporation | TA98 | 5000 µg/plate, 3 d, without S9, methanol |  | revertant colonies per plate | 21 ± 4
Cc1cc(C(=O)NC(C)(C)COc2cccc3c2C(N)=NS(=O)(=O)N3)cc(C)n1 | Ames test, initial | TA1535 | 1500 µg/plate, together with: rat liver S9 | relative to: solvent control | revertant ratio | 1.2
O=[N+]([O-])c1ccc(N2CCC(NCCC(O)c3ccc(F)c4ccccc34)CC2)c(C(F)(F)F)c1 (stereo not drawn) | SOS response, SOS/umu test | TA1535/pSK1002, TGA medium | 0.000488 mg/mL, 4 h, together with: 10% rat liver S9 | relative to: untreated | induction factor | 1.2
CN(CC(C)(C)C)N=O | mutagenicity, Ames plate incorporation | TA1535 | 150 µg/plate, without S9, methanol |  | revertant colonies per plate | 23.7 ± 4
OC(CCN1CC=C(c2ccc(F)cc2)CC1)c1ccc(F)c2ccccc12 (stereo not drawn) | SOS/umu test | TA1535/pSK1002 | 0.031 mg/mL, 4 h, with S9, lower range |  | survival | 103%
CC(C)N(C)N=O | mutagenicity, Ames plate incorporation | TA1537 | 5000 µg/plate, 3 d, without S9, methanol |  | revertant colonies per plate | 13 ± 3
CC(=O)N1CCC(C(=O)N2CCN3C(=O)c4cc(-c5ccccc5)ccc4NC(=O)C3C2)CC1 (stereo not drawn) |  | TA1537 | 15.8 µg/plate, together with: rat liver S9 |  | revertants per plate | 17

For quick reference, copied from above:
Structure (SMILES) | assay | system | conditions | scale | endpoint | value
Cc1cc(C(=O)NC(C)(C)COc2cccc3c2C(N)=NS(=O)(=O)N3)cc(C)n1 | Ames test, initial | TA1535 | 1500 µg/plate, together with: rat liver S9 | relative to: solvent control | revertant ratio | 1.2
